Experimental data of several laboratories.
Numbered parts are unrelated; each lists some results of a single study.

Block 1 — technique: universal PBM; molecule type: double-stranded DNA, one strand shown; sample: in vitro; concentration: 600 nM; direction: higher = stronger binding
Target: Sal-like protein 4, full length isoform A (SALL4, Homo sapiens, UniProt Q9UJQ4, residues 1-1053)
Sequence of UniProt Q9UJQ4 (whole entry, looked up): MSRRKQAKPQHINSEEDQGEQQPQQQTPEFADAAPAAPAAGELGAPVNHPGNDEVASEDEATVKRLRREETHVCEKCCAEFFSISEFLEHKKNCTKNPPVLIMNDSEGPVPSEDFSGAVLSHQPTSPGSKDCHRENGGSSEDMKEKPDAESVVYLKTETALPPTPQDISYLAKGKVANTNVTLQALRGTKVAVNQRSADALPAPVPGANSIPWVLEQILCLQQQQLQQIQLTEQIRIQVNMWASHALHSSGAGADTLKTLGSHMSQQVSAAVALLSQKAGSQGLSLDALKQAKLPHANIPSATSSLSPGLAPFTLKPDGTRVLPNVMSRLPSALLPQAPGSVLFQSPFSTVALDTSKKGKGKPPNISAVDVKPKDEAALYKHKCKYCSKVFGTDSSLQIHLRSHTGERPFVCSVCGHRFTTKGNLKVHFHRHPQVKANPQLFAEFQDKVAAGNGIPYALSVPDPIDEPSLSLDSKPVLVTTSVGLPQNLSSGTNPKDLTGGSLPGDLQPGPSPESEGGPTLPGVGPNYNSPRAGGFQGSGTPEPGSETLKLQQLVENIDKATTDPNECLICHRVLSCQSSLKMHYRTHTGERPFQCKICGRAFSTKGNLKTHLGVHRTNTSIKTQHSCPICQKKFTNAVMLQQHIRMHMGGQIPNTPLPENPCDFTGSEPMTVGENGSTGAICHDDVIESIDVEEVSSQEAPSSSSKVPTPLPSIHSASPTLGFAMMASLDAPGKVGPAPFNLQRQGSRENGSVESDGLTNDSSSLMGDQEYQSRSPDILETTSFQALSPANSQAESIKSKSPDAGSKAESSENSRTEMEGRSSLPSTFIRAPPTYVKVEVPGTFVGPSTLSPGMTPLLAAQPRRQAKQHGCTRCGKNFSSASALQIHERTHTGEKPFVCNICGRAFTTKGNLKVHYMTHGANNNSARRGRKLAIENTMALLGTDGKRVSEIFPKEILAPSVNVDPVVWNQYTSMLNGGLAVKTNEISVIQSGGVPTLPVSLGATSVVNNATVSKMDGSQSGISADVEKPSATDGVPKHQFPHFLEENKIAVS
Setting: 8-mer, flanks averaged, mean of replicates
Oligonucleotide	E-score
GCCACCAC	-0.152
GACCTGCA	-0.0113
CCGAGAAA	0.0877
TCATGAGA	0.0256
CCAGCACC	-0.275

Block 2 — technique: protein binding microarray; molecule type: double-stranded DNA, one strand shown; sample: in vitro; concentration: not given; relative to: not given; direction: higher = stronger binding
Target: Histone acetyltransferase KAT6A, winged helix 2, GST fusion (KAT6A, Homo sapiens, UniProt Q92794, residues 85-181)
Setting: 8-mer, flanks averaged, mean of 2 arrays, mostly near background
Target sequence (chain): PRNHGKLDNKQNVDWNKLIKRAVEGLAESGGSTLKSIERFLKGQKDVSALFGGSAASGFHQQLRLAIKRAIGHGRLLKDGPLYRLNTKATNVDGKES
Oligonucleotide	E-score
GTCTAGTA	-0.00535
AAATCGTT	-0.136
GAACCGTC	-0.0983
TCTATCAA	0.0265
AGGGAACC	0.0234

Block 3 — technique: aptamer microarray, sandwich; molecule type: DNA with 2'F-ANA; sample: in vitro; concentration: 200 nM; together with: Cy3 exosite-II aptamer, 400 nM; direction: higher = stronger binding
Target: Prothrombin, mature alpha-thrombin (F2, Homo sapiens, UniProt P00734)
Setting: whole 15-mer aptamer, many near background
Oligonucleotide	mean fluorescence intensity [a.u.]
GGTTGGTGTGGTTGG (2'F-ANA at 1 4 6 10 12 13 14)	47
GGTTGGTGTGGTTGG (2'F-ANA at 2 4 5 6 12 13 14)	44.2
GGTTGGTGTGGTTGG (2'F-ANA at 2 3 4 6 7 10 13 14)	171
GGTTGGTGTGGTTGG (2'F-ANA at 1 4 7 8 10 11 12 13 14)	41.7

Other studies, line by line
Substance	target	test	test system	conditions	how to read	quantity	value
PhoQ, residues 284 288 289 292 302 303 AGGLSV	PhoP, residues 12 14 15 18 19 LHSVW (Escherichia coli, UniProt P23836)	Sort-seq, measured: YFP reporter	E. coli	PhoQ-PhoP variant library, together with: 10 µM Mg2+	relative to: high Mg2+ state, higher = stronger signaling	fold induction	2.95
